Published values gathered from unrelated publications.
HDAC11: Histone deacetylase 11 (HDAC11, Homo sapiens, UniProt Q96DB2)
UniProt Q96DB2, sequence (whole entry, looked up): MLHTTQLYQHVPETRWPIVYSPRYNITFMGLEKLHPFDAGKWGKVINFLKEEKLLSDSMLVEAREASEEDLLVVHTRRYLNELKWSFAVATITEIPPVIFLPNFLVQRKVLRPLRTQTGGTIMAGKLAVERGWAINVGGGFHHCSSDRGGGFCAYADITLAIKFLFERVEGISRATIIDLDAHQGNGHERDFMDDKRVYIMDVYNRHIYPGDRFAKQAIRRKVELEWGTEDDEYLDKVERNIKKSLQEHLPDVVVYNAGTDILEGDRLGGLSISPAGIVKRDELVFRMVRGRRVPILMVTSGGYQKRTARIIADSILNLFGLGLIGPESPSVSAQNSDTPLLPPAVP
TACR2: Substance-K receptor (TACR2, Homo sapiens, UniProt P21452)
UniProt P21452, sequence (whole entry, looked up): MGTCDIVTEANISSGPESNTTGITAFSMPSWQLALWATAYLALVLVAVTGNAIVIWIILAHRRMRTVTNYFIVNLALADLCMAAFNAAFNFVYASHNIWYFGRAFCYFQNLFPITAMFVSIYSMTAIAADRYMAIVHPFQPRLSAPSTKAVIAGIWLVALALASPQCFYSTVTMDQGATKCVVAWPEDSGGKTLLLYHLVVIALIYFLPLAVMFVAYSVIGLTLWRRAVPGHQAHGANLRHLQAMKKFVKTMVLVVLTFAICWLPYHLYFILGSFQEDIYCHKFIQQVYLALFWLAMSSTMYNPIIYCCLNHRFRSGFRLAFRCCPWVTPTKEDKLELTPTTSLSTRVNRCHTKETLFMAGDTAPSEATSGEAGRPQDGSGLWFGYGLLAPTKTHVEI
HRH4: Histamine H4 receptor (HRH4, Homo sapiens, UniProt Q9H3N8)
Genome polyprotein NS2B-NS3 protease: Genome polyprotein, NS2B-NS3 protease (dengue virus type 2, UniProt P29990)
SIRT5: NAD-dependent protein deacylase sirtuin-5, mitochondrial (SIRT5, Homo sapiens, UniProt Q9NXA8)
UniProt Q9NXA8, sequence (whole entry, looked up): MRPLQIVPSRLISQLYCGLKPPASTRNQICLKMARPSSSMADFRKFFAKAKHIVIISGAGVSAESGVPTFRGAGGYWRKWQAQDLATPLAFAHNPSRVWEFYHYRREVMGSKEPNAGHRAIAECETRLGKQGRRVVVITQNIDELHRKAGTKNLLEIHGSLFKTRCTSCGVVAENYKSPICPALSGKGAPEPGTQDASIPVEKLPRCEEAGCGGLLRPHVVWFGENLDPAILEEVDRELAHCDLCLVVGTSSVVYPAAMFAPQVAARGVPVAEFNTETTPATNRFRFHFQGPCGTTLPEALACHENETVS
ERBB2: Receptor tyrosine-protein kinase erbB-2 (ERBB2, Homo sapiens, UniProt P04626)
VIPR1: Vasoactive intestinal polypeptide receptor 1 (VIPR1, Homo sapiens, UniProt P32241)
UniProt P32241, sequence (whole entry, looked up): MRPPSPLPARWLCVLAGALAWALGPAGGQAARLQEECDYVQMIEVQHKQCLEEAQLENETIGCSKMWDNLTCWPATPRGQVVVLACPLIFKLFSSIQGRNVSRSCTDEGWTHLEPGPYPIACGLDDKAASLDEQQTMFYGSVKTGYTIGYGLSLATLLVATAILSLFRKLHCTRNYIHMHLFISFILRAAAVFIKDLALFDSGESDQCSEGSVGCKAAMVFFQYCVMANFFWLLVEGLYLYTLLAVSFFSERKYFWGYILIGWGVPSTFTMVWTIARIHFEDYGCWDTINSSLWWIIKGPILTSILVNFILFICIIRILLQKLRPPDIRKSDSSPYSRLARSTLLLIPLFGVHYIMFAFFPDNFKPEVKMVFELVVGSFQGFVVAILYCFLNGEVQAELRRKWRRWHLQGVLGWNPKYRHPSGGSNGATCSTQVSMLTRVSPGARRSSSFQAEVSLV
TNKS: Poly [ADP-ribose] polymerase tankyrase-1 (TNKS, Homo sapiens, UniProt O95271)
UniProt O95271, sequence (whole entry, looked up): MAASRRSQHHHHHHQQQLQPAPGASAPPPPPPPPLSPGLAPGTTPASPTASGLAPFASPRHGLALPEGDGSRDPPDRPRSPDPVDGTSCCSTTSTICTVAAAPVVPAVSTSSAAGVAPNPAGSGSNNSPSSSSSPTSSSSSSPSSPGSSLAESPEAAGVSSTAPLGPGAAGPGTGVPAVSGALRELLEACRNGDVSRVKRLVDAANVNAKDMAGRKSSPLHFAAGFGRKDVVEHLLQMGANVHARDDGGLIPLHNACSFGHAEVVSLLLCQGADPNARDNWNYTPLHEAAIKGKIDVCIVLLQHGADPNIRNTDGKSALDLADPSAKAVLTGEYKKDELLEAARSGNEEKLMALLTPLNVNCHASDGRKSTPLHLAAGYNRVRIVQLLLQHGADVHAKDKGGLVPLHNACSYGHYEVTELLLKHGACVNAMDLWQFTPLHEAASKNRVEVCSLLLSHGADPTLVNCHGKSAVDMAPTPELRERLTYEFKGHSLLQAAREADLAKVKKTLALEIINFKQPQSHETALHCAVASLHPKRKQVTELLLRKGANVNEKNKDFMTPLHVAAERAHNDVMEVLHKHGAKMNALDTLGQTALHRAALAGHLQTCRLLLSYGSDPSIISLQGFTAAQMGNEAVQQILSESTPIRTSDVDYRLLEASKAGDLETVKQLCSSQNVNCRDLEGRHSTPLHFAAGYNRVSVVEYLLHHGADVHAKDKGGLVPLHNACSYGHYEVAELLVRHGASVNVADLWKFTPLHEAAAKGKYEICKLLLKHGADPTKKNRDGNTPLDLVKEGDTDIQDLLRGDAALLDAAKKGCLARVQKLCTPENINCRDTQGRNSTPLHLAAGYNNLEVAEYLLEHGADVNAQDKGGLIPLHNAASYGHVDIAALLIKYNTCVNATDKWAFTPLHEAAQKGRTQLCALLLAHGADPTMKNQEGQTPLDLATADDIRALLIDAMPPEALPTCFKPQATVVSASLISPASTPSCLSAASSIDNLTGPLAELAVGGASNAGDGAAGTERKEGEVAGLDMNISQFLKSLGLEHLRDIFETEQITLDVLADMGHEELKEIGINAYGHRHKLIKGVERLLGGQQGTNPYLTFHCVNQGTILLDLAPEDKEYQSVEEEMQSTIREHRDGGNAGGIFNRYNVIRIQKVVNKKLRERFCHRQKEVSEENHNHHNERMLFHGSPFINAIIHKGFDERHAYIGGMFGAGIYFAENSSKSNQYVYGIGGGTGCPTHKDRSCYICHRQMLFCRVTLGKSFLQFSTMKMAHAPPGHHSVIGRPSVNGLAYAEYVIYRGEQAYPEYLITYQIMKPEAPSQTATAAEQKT
CDK12 with cyclin K: Cyclin-dependent kinase 12, with cyclin K (CDK12, Homo sapiens, UniProt Q9NYV4)
UniProt Q9NYV4, sequence (whole entry, looked up): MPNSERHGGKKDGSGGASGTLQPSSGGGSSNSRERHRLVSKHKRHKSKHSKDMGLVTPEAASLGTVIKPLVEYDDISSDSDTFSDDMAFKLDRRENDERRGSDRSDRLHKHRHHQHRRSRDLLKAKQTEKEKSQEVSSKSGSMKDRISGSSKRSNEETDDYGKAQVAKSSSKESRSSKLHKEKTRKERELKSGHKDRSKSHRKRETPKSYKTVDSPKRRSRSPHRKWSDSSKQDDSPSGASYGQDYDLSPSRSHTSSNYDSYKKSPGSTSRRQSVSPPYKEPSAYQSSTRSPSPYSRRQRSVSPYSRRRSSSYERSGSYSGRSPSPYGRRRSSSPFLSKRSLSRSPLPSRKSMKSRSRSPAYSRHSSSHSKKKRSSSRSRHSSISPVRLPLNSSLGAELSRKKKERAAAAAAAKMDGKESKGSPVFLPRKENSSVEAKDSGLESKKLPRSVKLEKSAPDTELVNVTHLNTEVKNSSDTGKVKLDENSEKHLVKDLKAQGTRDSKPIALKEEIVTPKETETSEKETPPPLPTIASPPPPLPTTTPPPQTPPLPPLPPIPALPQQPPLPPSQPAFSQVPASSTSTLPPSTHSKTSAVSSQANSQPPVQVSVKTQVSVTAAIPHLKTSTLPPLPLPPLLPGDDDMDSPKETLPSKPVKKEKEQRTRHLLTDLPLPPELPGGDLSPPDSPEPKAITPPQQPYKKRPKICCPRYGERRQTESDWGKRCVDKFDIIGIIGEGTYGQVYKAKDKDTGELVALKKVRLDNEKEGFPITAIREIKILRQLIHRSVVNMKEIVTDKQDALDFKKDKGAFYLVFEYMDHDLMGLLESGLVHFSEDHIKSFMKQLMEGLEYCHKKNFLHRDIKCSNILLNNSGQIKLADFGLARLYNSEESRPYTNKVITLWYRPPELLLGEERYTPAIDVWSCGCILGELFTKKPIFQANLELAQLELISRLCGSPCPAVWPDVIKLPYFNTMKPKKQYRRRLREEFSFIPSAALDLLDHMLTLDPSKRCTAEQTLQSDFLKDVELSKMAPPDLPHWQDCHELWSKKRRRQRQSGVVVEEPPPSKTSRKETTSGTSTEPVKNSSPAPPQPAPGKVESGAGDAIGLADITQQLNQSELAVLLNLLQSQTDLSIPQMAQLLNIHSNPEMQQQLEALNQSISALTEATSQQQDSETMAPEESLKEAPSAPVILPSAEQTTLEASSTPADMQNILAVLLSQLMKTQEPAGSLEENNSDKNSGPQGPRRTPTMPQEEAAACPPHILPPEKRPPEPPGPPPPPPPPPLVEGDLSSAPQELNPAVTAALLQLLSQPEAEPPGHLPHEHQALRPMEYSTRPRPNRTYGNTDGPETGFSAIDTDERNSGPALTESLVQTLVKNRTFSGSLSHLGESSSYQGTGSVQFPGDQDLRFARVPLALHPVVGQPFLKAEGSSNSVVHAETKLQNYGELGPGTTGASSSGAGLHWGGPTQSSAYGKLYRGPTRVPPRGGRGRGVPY
PRMT1: Protein arginine N-methyltransferase 1 (PRMT1, Homo sapiens, UniProt Q99873)
UniProt Q99873, sequence (whole entry, looked up): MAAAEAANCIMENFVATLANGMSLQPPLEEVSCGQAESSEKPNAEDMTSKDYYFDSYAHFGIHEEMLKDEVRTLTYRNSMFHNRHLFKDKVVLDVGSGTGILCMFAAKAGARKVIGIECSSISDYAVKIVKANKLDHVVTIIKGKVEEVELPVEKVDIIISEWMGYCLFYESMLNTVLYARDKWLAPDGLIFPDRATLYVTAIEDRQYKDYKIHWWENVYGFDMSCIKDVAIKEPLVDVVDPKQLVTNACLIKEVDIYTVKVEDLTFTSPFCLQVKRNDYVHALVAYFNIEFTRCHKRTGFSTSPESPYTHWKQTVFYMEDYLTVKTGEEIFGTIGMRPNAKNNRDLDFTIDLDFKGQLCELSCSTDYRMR
UniProt Q01727, sequence (whole entry, looked up): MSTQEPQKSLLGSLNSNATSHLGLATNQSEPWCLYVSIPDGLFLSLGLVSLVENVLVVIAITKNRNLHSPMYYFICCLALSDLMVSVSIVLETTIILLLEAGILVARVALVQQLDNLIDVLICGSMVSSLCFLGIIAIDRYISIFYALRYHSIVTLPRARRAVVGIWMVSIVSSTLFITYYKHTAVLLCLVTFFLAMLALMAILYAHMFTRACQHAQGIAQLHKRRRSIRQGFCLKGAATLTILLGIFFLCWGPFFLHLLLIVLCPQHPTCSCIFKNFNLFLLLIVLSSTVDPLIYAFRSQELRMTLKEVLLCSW

| SMILES | target | assay | system | conditions | how to read | inhibition |
| --- | --- | --- | --- | --- | --- | --- |
| Cn1sc(Nc2c(Cl)ccc3ncccc23)c(C#N)c1=O | NAD(+) hydrolase SARM1 (SARM1, Homo sapiens, UniProt Q6SZW1) | enzyme activity, inhibitor |  | 10 µM |  | 100% |
| O=C(/C=C/c1cccc(OS(=O)(=O)Oc2ccc(Br)cc2)c1)NO | HDAC11 |  |  | 10 µM |  | 38% |
| COc1cc(-c2cn(C)c(=O)c3cnccc23)cc(OC)c1CN(C)C | Chromatin remodeling regulator CECR2 (CECR2, Homo sapiens, UniProt Q9BXF3) |  |  | 1 µM |  | 97.2% |
| Cn1ccc2cc(-n3c(=O)[nH]c4sc5c(c4c3=O)CCCC5)ccc21 | Alpha-1D adrenergic receptor (ADRA1D, Homo sapiens, UniProt P25100) | cell-free assay, radioligand |  | 10 µM |  | 3% |
| CC(C)Cn1c(SCC(=O)N2CCc3ccccc3C2)nc2cc(Cl)ccc2c1=O | D(1A) dopamine receptor (DRD1, Homo sapiens, UniProt P21728) | ligand displacement, radioligand |  | 10 µM |  | 1% |
| CC(=O)c1cnc(N)nc1N1CC[C@H]1c1nn2ccc(Cl)c2c(=O)n1-c1ccccc1 | TACR2 | ligand displacement, radioligand |  | 10 µM |  | 12% |
| O=C(N1CCCC1)n1ccnn1 | Acylamino-acid-releasing enzyme (Apeh, Mus musculus, UniProt Q8R146) | serine hydrolase activity, inhibitor, competitive gel-based ABPP | mouse T-cell proteome | 1 µM, 30 min, 37 °C |  | > 95% |
| COc1ccc(C(=O)Nc2c(-c3cccs3)nc3ccccn23)cc1 | HRH4 | ligand displacement, radioligand |  | 10 µM |  | < 50% |
| O=C1CO[C@H](CNC(=O)C2(c3ccc(Cl)cc3)CC2)CN1C1Cc2ccccc2C1 | XCR1 (Homo sapiens, UniProt P46094) | β-arrestin recruitment, antagonist |  | 1 µM |  | 13% |
| NC(=O)c1cccc(NC(=O)c2cc(-c3cccs3)n(-c3ccc(Cl)cc3)n2)c1 | Genome polyprotein NS2B-NS3 protease | enzyme activity, fluorogenic AMC substrate |  | 50 µM |  | 59% |
| CCCCCCCCCCCCCCCC(=O)N[C@@H](CCCCN)C(=O)N[C@@H](CCCCN)C(=O)N[C@@H](CO)C(=O)N[C@@H](CCCNC(=N)N)C(=O)N[C@@H](C)C(=O)N[C@@H](CC(C)C)C(=O)N[C@@H](Cc1ccccc1)C(N)=O | Proteinase-activated receptor 4 (F2RL3, Homo sapiens, UniProt Q96RI0) | platelet aggregation, ex vivo LTA | human | 0.5 mg/kg, 30 min, with: AYPGKF 160 µM | baseline: baseline | 11% |
| CS(=O)(=O)Nc1cccc(-c2csc3cnc(Nc4ccc(N5CCN(CCCCCOc6cccc7c6C(=O)N(C6CCC(=O)NC6=O)C7=O)CC5)cc4)nc23)c1 (stereo not shown) | Serine/threonine-protein kinase ATR (ATR, Homo sapiens, UniProt Q13535) | probe labelling, inhibitor, KiNativ chemoproteomics | MOLT-4 | 1 µM |  | -14.5% |
| O=C1c2sc(-c3ccc(N4CCC(CO)CC4)nc3F)nc2CCN1c1cccnc1 | Melanocyte-stimulating hormone receptor (Mc1r, Mus musculus, UniProt Q01727) | ligand displacement, radioligand |  | 1 µM |  | -6% |
| CCn1cc(C(=O)O)c(=O)c2c(N)c(F)c(NC3CCCCC3)cc21 | [Pyruvate dehydrogenase (acetyl-transferring)] kinase isozyme 1, mitochondrial (PDK1, Homo sapiens, UniProt Q15118) | kinase activity |  | 0.1 µM, with: ATP at Km |  | 19.9% |
| COc1ccc(S(=O)(=O)N2CCc3ccccc3C2)cc1N1CCN(C(=O)c2ccc(F)cc2C(F)(F)F)CC1 | TACR2 | ligand displacement, radioligand |  | 1 µM |  | 13.7% |
| O=C(NC1CCC1)[C@H](Cc1c[nH]c2ccccc12)NC(=O)[C@H](CCCCNC(=S)NCCS(=O)(=O)O)NS(=O)(=O)c1cccc(F)c1 | SIRT5 | enzyme activity, inhibitor |  | 100 µM |  | 46% |
| COc1ncc2nc(C)n(Cc3ncc(S(N)(=O)=O)cc3F)c2c1-c1ccccc1 | Cannabinoid receptor 2 (CNR2, Homo sapiens, UniProt P34972) | antagonist, cell-based |  | 10 µM |  | 8.62% |
| CN1CCN(Cc2ccc(-c3ccc(CO[C@H]4CCC[C@@H]4NC(=O)c4cc(-c5cnn(C)c5)cnc4N)cc3)cc2)CC1 | ERBB2 | enzyme activity, inhibitor |  | 0.1 µM |  | -7% |
| O=C1c2sc(-c3ccc(N4CCC(F)C4)nc3F)nc2CCN1c1cccnc1 (stereo not shown) | VIPR1 | ligand displacement, radioligand |  | 1 µM |  | 1% |
| Cc1cc(C(=O)NCCNC(=O)c2cccc(COc3ccccc3C(N)=O)c2)n[nH]1 | TNKS | enzyme activity, inhibitor |  | 5 nM |  | 85% |
| O=C(NO)c1cccc(OS(=O)(=O)Oc2ccccc2)c1 | HDAC11 |  |  | 10 µM |  | 29% |
| C[Si](C)(C)C[C@H](CN)CC(=O)O | Neuropeptide Y receptor type 1 (NPY1R, Homo sapiens, UniProt P25929) | ligand displacement, radioligand |  | 250 µM |  | -4% |

| SMILES | target | assay | system | conditions | how to read | inhibition |
| --- | --- | --- | --- | --- | --- | --- |
| O=C(Nc1cccc(CN2CCc3nc[nH]c3C2)c1)c1cc(-c2ccccc2)n(-c2ccccc2)n1 | Genome polyprotein NS2B-NS3 protease | reporter gene | HeLa | 12.5 µM |  | 67% |
| CN1CC[C@@H](COc2cnc(C#N)cc2-c2ccn3nc(NC(=O)C4CC4)cc3c2)C1 | CDK12 with cyclin K | enzyme activity, inhibitor |  | 1 µM |  | 9% |
| O=C(CCCc1ccc2c(c1)OCCO2)NCCNC(=O)Cn1c(=O)[nH]c(=O)c2ccccc21 | TNKS | enzyme activity, inhibitor |  | 0.5 µM |  | 14% |
| CCCCCCCCCCCCNC(=S)NCCCC[C@H](NC(=O)OCc1ccccc1)C(=O)N[C@@H](Cc1c[nH]c2ccccc12)C(=O)NC(C)C | SIRT5 | enzyme activity, inhibitor |  | 100 µM |  | < 5% |
| CN(Cc1ccc(/C=C/C(=O)NO)cc1)CC12CC3CC(CC(C3)C1)C2 | human GAL2 receptor | radioligand binding |  | 0.05 µM |  | 1% |
| Brc1ccccc1-c1nnc(CSc2nnnn2-c2ccccc2)o1 | HRH4 | ligand displacement, radioligand |  | 10 µM |  | 8% |
| C/C=C/C(=O)Nc1ccc2nc(NCCCCCN(C)C)nc(NCCCCCCN(C)C)c2c1 | PRMT1 | enzyme activity, inhibitor, radiometric |  | 10 µM |  | 65% |
| O=C(NO)c1cccc(OS(=O)(=O)Oc2cccc([N+](=O)[O-])c2)c1 | HDAC11 |  |  | 10 µM |  | 37% |
| COc1ccc(C(=O)/C=C/c2ccccc2-c2c[nH]c3ccc(C#N)cc23)c(O)c1 | CDK12 with cyclin K | enzyme activity, inhibitor |  | 20 µM |  | 2% |
| O=C(NCc1ccccn1)c1cc(-c2ccccc2)n(-c2ccccc2)n1 | Genome polyprotein NS2B-NS3 protease | enzyme activity, fluorogenic AMC substrate |  | 50 µM |  | 17% |
| CC(=O)N[C@H](C(=O)N[C@@H](CO)C(=O)N[C@@H](Cc1ccccc1)C(=O)N[C@H]1CCCCNC(=N)NCCCC[C@@H](C(=O)N2CCC[C@H]2C(N)=O)NC(=O)[C@H](CC(C)C)NC(=O)[C@H](CC(C)C)NC(=O)[C@H](C)NC(=O)[C@H](Cc2c[nH]c3ccccc23)NC(=O)[C@H](Cc2ccc(O)cc2)NC(=O)[C@H](CCC(=O)O)NC1=O)[C@@H](C)O | E3 ubiquitin-protein ligase Mdm2 (MDM2, Homo sapiens, UniProt Q00987) | protein-protein interaction, inhibitor, TR-FRET |  | 0.1 µM |  | 80% |
| O=C(c1cc(-c2ccccc2)n(-c2ccccc2)n1)N1CCc2nc[nH]c2C1 | Genome polyprotein NS2B-NS3 protease | reporter gene | HeLa | 12.5 µM |  | 37% |
| CN(C)C/C=C/C(=O)Nc1ccc2nc(NCCCCCN(C)C)nc(NCCCCCCN(C)C)c2c1 | PRMT1 | enzyme activity, inhibitor, radiometric |  | 50 µM |  | 97% |
| Cc1ccc(-n2nc(C(N)=O)cc2-c2ccc(CC(C)C)cc2)cc1 | Genome polyprotein NS2B-NS3 protease | reporter gene | HeLa | 12.5 µM |  | 61% |
| COc1cc(OC)c(F)c(/C=C/c2cnc3ccn(S(=O)(=O)c4cn(CCF)cn4)c3n2)c1F | ERBB2 |  |  | 100 nM |  | 1.6% |
| O=C(Nc1cccc(CNc2ncccn2)c1)c1cc(-c2ccccc2)n(-c2ccccc2)n1 | Genome polyprotein NS2B-NS3 protease | enzyme activity, fluorogenic AMC substrate |  | 50 µM |  | 67% |
| O=C(CC1CC2CCC1C2)NCCNC(=O)Cn1c(=O)[nH]c(=O)c2ccccc21 (stereo not shown) | TNKS | enzyme activity, inhibitor |  | 5 nM |  | 0% |
| O=C(c1cc(-c2ccccc2)n(-c2ccccc2)n1)N1CCN(Cc2ccccn2)CC1 | Genome polyprotein NS2B-NS3 protease | reporter gene | HeLa | 12.5 µM |  | 42% |
| CCC(=O)N(C)c1ccc(Cl)c(Cl)c1 | VIPR1 | ligand displacement, radioligand |  | 10 µM |  | < 10% |
| N=C(N)NCc1cccc(NC(=O)c2cc(-c3ccccc3)n(-c3ccccc3)n2)c1 | Genome polyprotein NS2B-NS3 protease | enzyme activity, fluorogenic AMC substrate |  | 50 µM |  | 60% |
| CCCCCCCCCCCCNC(=S)NCCCC[C@H](NS(C)(=O)=O)C(=O)N[C@H](C)C(=O)N[C@@H](CCCNC(=N)N)C(N)=O | SIRT5 | enzyme activity, inhibitor |  | 100 µM |  | < 5% |

A few entries again:
| SMILES | target | assay | system | conditions | how to read | inhibition |
| --- | --- | --- | --- | --- | --- | --- |
| COc1ccc(S(=O)(=O)N2CCc3ccccc3C2)cc1N1CCN(C(=O)c2ccc(F)cc2C(F)(F)F)CC1 | TACR2 | ligand displacement, radioligand |  | 1 µM |  | 13.7% |
| O=C(NC1CCC1)[C@H](Cc1c[nH]c2ccccc12)NC(=O)[C@H](CCCCNC(=S)NCCS(=O)(=O)O)NS(=O)(=O)c1cccc(F)c1 | SIRT5 | enzyme activity, inhibitor |  | 100 µM |  | 46% |
| COc1ncc2nc(C)n(Cc3ncc(S(N)(=O)=O)cc3F)c2c1-c1ccccc1 | Cannabinoid receptor 2 (CNR2, Homo sapiens, UniProt P34972) | antagonist, cell-based |  | 10 µM |  | 8.62% |
| CN1CCN(Cc2ccc(-c3ccc(CO[C@H]4CCC[C@@H]4NC(=O)c4cc(-c5cnn(C)c5)cnc4N)cc3)cc2)CC1 | ERBB2 | enzyme activity, inhibitor |  | 0.1 µM |  | -7% |
| O=C1c2sc(-c3ccc(N4CCC(F)C4)nc3F)nc2CCN1c1cccnc1 (stereo not shown) | VIPR1 | ligand displacement, radioligand |  | 1 µM |  | 1% |
| Cc1cc(C(=O)NCCNC(=O)c2cccc(COc3ccccc3C(N)=O)c2)n[nH]1 | TNKS | enzyme activity, inhibitor |  | 5 nM |  | 85% |
| O=C(NO)c1cccc(OS(=O)(=O)Oc2ccccc2)c1 | HDAC11 |  |  | 10 µM |  | 29% |
